Measurements pooled from the literature.
Parts stem from different laboratories: compare values within a part only. Changes are numbered by the printed parent chain.
Sequence of UniProt Q93WC4 (whole entry, looked up): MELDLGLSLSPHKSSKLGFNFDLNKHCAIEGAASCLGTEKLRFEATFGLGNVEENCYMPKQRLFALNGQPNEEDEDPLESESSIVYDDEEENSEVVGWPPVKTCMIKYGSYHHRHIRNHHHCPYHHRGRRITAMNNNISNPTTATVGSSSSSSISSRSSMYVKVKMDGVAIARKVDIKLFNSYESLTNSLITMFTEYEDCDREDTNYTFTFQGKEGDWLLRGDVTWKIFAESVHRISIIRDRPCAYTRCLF
Sequence of UniProt O23661 (whole entry, looked up): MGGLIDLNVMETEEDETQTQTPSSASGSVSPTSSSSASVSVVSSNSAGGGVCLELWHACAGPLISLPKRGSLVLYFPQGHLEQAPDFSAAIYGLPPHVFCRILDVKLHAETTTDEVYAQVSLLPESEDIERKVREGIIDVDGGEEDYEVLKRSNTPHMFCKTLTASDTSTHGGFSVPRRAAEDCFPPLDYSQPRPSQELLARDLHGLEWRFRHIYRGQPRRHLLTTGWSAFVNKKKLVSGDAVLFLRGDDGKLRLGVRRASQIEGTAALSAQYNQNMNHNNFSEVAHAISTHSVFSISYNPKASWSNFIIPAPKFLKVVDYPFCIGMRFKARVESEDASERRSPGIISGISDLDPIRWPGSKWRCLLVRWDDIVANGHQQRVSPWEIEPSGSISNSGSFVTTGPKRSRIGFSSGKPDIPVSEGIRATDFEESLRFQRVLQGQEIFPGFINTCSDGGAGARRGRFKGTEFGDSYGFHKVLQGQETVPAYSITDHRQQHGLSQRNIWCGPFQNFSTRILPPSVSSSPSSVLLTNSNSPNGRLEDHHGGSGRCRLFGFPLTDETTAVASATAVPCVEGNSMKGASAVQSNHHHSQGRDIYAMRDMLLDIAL
Sequence of UniProt Q8LAL2 (whole entry, looked up): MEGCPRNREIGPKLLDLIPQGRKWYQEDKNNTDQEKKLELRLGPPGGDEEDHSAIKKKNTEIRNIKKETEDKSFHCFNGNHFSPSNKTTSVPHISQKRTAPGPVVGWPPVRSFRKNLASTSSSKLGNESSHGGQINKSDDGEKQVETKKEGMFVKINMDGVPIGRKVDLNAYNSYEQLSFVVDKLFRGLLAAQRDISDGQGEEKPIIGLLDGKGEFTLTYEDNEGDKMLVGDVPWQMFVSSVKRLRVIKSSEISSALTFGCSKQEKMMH

Block 1
Target: MAFK, bZIP domain (human)
Method: DHFR protein complementation
Matrix: yeast
Setting: single substitutions, most at no-binding floor
Baseline: wild-type JUN-FOS pair
Direction: higher = stronger binding
Parent: JUN, bZIP domain (human); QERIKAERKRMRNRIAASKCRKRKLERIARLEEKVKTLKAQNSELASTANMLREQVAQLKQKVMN; partner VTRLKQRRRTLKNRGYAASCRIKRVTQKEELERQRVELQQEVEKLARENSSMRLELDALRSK
| Substitution | binding fitness |
| --- | --- |
| A49F | -1.51 natural log |
| L45W | -1.42 natural log |
| K36L | -1.5 natural log |
| T48D | -1.56 natural log |
| L31F | -1.53 natural log |
| L52P | -1.48 natural log |
| A29M | -1.35 natural log |
| E54M | -1.24 natural log |
| L31P | -1.47 natural log |
| A46Q | -1.39 natural log |
| Q55P | -1.5 natural log |
| N42A | -1.36 natural log |
| L59T | -1.55 natural log |
| S47N | -1.42 natural log |
| T37E | -1.36 natural log |
| I28P | -1.5 natural log |
| V56H | -1.46 natural log |
| K39R | -1.47 natural log |
| R30E | -1.52 natural log |
| I28Q | -1.5 natural log |
| A57T | -1.52 natural log |
| R30H | -1.49 natural log |
| E54Q | -1.41 natural log |
| Q41E | -1.39 natural log |
| Q55A | -1.43 natural log |

Block 2
Target: CEP164, C-terminal peptide (human)
Method: DHFR complementation, deep sequencing
Matrix: yeast
Setting: single substitutions, model-inferred values
Baseline: wild type
Direction: higher = weaker binding
Parent: PDZK1, PDZ domain 2 (human); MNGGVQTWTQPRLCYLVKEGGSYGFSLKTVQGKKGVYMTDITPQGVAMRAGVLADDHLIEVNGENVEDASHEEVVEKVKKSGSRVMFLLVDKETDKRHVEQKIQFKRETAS; partner HNRVKVYRF
| Substitution | binding free energy change [kcal/mol] |
| --- | --- |
| I59G | 1.86 |
| P43Y | 0.228 |
| N62A | 1.14 |
| G32S | 0.409 |
| G45W | 0.708 |
| S70T | 0.012 |
| K28Q | -0.0191 |
| L89F | 0.412 |
| H71R | 1.9 |
| K96F | 0.0367 |
| D91T | -0.204 |
| A110L | -0.141 |
| E108T | -0.158 |
| V30Q | 0.0223 |
| G82T | 0.857 |
| L27Q | 1.2 |
| K102Q | -0.107 |

Block 3
Partner: ARF12 500-593 (Arabidopsis thaliana, UniProt Q9XID4)
Method: two-hybrid
Baseline: out of 4 tests
Direction: higher = firmer interaction
Residues (chain): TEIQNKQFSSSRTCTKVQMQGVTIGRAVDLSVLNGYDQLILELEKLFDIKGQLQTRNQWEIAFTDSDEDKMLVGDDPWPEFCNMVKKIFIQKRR
| Molecule | positive tests |
| --- | --- |
| IAA26 (Arabidopsis thaliana, UniProt Q8LAL2) | 0 |
| ETT (Arabidopsis thaliana, UniProt O23661) | 0 |
| IAA29 (Arabidopsis thaliana, UniProt Q93WC4) | 0 |

Block 4
Target: RNA binding protein fox-1 homolog 2, RRM domain, GST-SBP tag (RBFOX2, Homo sapiens, UniProt O43251-10, residues 100-194)
Method: RNA Bind-n-Seq
Form: RNA
Matrix: in vitro
Tested at: 365 nM
Setting: natural RNA segment, single round, ends assumed
Baseline: no-protein control
Direction: higher = stronger binding
Construct (chain): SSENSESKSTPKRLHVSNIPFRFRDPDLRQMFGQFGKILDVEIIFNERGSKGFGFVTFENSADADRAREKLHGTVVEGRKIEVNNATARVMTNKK
| Sequence | RBNS enrichment (R) |
| --- | --- |
| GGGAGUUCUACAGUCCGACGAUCGGUCUUGAACAACUGCCUCACUCUAUAGCCCAAGUUAUCUAGGUCUGAUAGUUGGGAUAAAGGGCUCAGCUCAGUUUACCUGUUACAAUUCAUAGUAUAUUGUUGUUUGUUGGAAUUCUCGGGUGCCAA | 0.449 |
| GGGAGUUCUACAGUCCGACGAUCAGCCUAAGUUUGUAUUUGUAAAUUUCUUAUGCCAUCCUCUAGUCAAAUUUUUUUUCAUUGUUUAAAAAUACGGAAGUGUUCCAAUAUAAUUUUUUCCUGUACUGGAUGGCUGGAAUUCUCGGGUGCCAA | 0.733 |
| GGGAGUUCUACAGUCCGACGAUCGAUUGCCUUUAAUAUUUUGUAAUAUUCUGUUUUGUUAAUAUACCCCAAAUUGUGUAUAUAUCUUAUAACUGUUUUAGAAAUUGGUACAUAGGCUUCUAUUACCUAUUAGGUGGAAUUCUCGGGUGCCAA | 0.568 |
| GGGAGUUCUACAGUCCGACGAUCUUAGCCCGUUGCCACUGUUCGGGAUUCGAUUUGAAACUCAUCACUAGUAUAGAAGUGGCAUAUCCCACUAGCUUCUACUUUCCUGAUAUAUUUUUACAAAUAACUUUAUUUGGAAUUCUCGGGUGCCAA | 0.521 |
| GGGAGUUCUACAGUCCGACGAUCAAAAAAAAAUGGUGGCUUCAGCUCCAGCCCCUUUCCAAAAUUUUUCAACCCCACCCUGUUUGGAUUUUUAAUUAAAAUCUAGUAGUUCUCUUGGUAUUAAAACACUUCUGUGGAAUUCUCGGGUGCCAA | 1.01 |
| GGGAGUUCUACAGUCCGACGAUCAUUUUGACAAAUAUAUUUAUAACUACAUAUUAAAAGAAAAUAAAAUGAGUCAUUAUUUUAAAGAUAACUAAGACCUUUCUAUCUUAUUUCCUCUUCCAUACUCUUGAAUGUGGAAUUCUCGGGUGCCAA | 0.445 |
| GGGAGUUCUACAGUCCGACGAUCAAGUGACCAUUUGGAUGUCUGGGCCCUGCCAAGGCGACAGGGAGGGUCAGAGGGAGGCCGGCUGCUUCCUGCCCCCACCCUUUCCCCGGGCCUGCUGUGCUGCUUUUGUGUGGAAUUCUCGGGUGCCAA | 0.453 |
| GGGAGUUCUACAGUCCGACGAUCCCAUUGUAACGGUUCCUGGAAGCUGGGCCCUCUCAUUGGCAUAUACAGUACUCCUCGCUGCAGGGCACUGUCCCACCGGGAUCCAGUUGCAAAGUUUGUCUUGACAGUUGUGGAAUUCUCGGGUGCCAA | 0.384 |
| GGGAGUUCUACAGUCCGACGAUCAACUGUAAUAGCUAUUGGUCUUCAAGUGGGUUUAGAUUUGGUGACAUCAGUUUGAUAUUCUCUUAAAGGAAAUAAAUAUUCAAGAACUGAUUAUGUUCUAACAUGAUUAUUGGAAUUCUCGGGUGCCAA | 0.589 |
| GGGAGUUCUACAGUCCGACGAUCUGCUUGCUCAGGCUCAGAGGGACCUCACCCCUGAGCAGGCUGCAGAGAGACUAAGGGCACUUCCUGAGGUUCAUUACCACCUGGGGCAGAAGGACAGGGAGACAGCAACCUGGAAUUCUCGGGUGCCAA | 0.247 |
| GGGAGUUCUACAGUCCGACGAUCGUGAUGCUGUGUGAGAAGAUGGCUUUGCAGACCUCCUGCGCAGUCUCUUGCACUGUGUCCAUCACCACUUGGUGAGGACUCUUAAACUCUCUCCUCAUGUGCUUAUACCCUGGAAUUCUCGGGUGCCAA | 0.301 |
| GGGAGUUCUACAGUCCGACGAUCCCAAGAUAUAACCCACCAGUGCCUUUUGUCUUCCUGUCAGCUCUGUCAAUCACGCCUGUCCUCUCACGCCCACACCAAGUGCCCAAAGUGGGGAGGGACAAGAGAUUCUGUGGAAUUCUCGGGUGCCAA | 0.552 |

Block 5
Target: CCNF, cyclin fold, Cln2 fusion (human)
Method: yeast growth competition, sequencing
Matrix: yeast
Setting: strong parent motif
Baseline: not given
Direction: higher = stronger binding
Parent: SAMHD1 docking peptide (human); ASKSRVQLFKDDP; partner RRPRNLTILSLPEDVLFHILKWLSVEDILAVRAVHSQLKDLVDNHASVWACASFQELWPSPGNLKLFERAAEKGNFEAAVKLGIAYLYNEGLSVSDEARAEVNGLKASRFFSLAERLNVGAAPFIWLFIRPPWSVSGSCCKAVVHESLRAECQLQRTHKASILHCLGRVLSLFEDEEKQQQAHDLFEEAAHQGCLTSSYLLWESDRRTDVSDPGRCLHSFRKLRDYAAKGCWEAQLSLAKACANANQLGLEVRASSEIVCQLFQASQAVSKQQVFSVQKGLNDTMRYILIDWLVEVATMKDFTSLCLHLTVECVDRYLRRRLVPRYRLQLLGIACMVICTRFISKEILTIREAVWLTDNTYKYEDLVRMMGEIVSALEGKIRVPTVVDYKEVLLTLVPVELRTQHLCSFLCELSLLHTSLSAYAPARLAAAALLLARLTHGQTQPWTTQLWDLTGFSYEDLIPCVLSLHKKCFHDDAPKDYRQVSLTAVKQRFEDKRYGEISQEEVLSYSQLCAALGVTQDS
| Substitution | normalised enrichment score |
| --- | --- |
| ASKQRVQLFKDDP [S4Q] | 1.29 |
| ASKPRVQLFKDDP [S4P] | 2.36 |
| ASKSRIQLFKDDP [V6I] | 0.478 |
| ASRSRVQLFKDDP [K3R] | 2.08 |
| ASKARVQLFKDDP [S4A] | 4.77 |
| ASKSRVQPFKDDP [L8P] | 0.00941 |
| ASKSMVQLFKDDP [R5M] | 0.0186 |
| ASKSRVSLFKDDP [Q7S] | 0.313 |
| ASKSRVQDFKDDP [L8D] | -0.143 |
| ASKSRVQLFTDDP [K10T] | 0.58 |
| ASKSRVQLFKMDP [D11M] | 0.869 |
| ASKSWVQLFKDDP [R5W] | 0.592 |
| ASKSRVQKFKDDP [L8K] | 0.288 |
| ASKSRVQLFQDDP [K10Q] | 0.428 |
| ASKSRLQLFKDDP [V6L] | 0.692 |
| ASKSRVQFFKDDP [L8F] | -0.0435 |
| ASKSRAQLFKDDP [V6A] | -0.208 |
| ATKSRVQLFKDDP [S2T] | 1.56 |
| ASKSKVQLFKDDP [R5K] | 0.89 |
| ASYSRVQLFKDDP [K3Y] | 1.54 |
| ASKSRVQLFKCDP [D11C] | 0.977 |

Block 6
Target: ABI1, truncated, D143A, DHFR fusion (Arabidopsis thaliana)
Method: DHFR PCA, deep sequencing
Matrix: yeast
Setting: methotrexate growth selection, single substitutions
With: (+)-ABA 58 µM
Baseline: wild-type fitted maximum
Direction: higher = stronger binding
Parent: PYL1, truncated, DHFR fusion (Arabidopsis thaliana); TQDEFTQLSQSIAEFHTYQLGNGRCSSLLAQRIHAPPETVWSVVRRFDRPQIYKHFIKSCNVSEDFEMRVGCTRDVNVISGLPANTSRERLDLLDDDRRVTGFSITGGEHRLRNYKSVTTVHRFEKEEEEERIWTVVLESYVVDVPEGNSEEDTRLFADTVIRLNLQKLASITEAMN
| Substitution | relative binding score [%] |
| --- | --- |
| G81W | -0.958 |
| T119A | 23.6 |
| S140T | 10.4 |
| N177C | 88.6 |
| R123Q | 98.9 |
| I33M | 69.8 |
| V142R | 68.2 |
| R132T | 105 |
| V121S | -6.46 |
| E130Y | 91.8 |
| S11D | 87.7 |
| V137Y | 3.37 |
| C25E | -3.74 |
| C72P | 3.14 |
| D97C | 78.7 |
| T119S | 41.6 |
| S140Y | 18.7 |
| E89C | -4.79 |
| K54S | 2.18 |
| D65C | 80.7 |
| Y53A | 18.2 |
| Q2I | 92.9 |

Other studies, line by line
| Molecule | target | test | system | conditions | scale | endpoint | value |
| --- | --- | --- | --- | --- | --- | --- | --- |
| PhoQ, residues 284 288 289 292 302 303 SSCCRF | PhoP, residues 12 14 15 18 19 NQGLL (Escherichia coli, UniProt P23836) | Sort-seq, measured: YFP reporter | E. coli | PhoQ-PhoP variant library, with: 10 µM Mg2+ | baseline: high Mg2+ state, higher = stronger signaling | fold induction | 12.7 |

Some of these lines once more (block 5):
| Substitution | normalised enrichment score |
| --- | --- |
| ASKSRVQPFKDDP [L8P] | 0.00941 |
| ASKSMVQLFKDDP [R5M] | 0.0186 |
| ASKSRVSLFKDDP [Q7S] | 0.313 |
| ASKSRVQDFKDDP [L8D] | -0.143 |
| ASKSRVQLFTDDP [K10T] | 0.58 |
| ASKSRVQLFKMDP [D11M] | 0.869 |
| ASKSWVQLFKDDP [R5W] | 0.592 |
| ASKSRVQKFKDDP [L8K] | 0.288 |
| ASKSRVQLFQDDP [K10Q] | 0.428 |
| ASKSRLQLFKDDP [V6L] | 0.692 |
| ASKSRVQFFKDDP [L8F] | -0.0435 |
| ASKSRAQLFKDDP [V6A] | -0.208 |
| ATKSRVQLFKDDP [S2T] | 1.56 |
| ASKSKVQLFKDDP [R5K] | 0.89 |
| ASYSRVQLFKDDP [K3Y] | 1.54 |
| ASKSRVQLFKCDP [D11C] | 0.977 |
